Measured values pooled from the literature.
Every numbered part comes from another study and shows a few of its results, in no order. Substitutions count along the parent as printed.
Chain of UniProt P11802 (whole entry, looked up): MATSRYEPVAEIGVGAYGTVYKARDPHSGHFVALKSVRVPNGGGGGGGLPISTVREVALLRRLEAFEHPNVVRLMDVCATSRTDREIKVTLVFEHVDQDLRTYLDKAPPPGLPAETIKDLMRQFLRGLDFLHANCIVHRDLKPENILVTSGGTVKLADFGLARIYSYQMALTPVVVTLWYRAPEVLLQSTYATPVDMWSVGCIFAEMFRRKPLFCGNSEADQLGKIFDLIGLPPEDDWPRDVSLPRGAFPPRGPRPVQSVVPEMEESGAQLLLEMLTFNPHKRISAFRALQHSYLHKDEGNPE
Chain of UniProt Q9HC98 (whole entry, looked up): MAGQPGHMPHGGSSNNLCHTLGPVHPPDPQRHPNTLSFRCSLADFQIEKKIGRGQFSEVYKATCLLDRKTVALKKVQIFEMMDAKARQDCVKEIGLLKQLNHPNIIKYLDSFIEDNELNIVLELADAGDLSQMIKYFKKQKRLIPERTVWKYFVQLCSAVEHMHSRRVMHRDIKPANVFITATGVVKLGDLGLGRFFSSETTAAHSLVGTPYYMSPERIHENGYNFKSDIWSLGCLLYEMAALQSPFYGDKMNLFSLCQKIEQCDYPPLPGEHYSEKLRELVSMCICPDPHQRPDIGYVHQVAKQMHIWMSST
Chain of UniProt Q92772 (whole entry, looked up): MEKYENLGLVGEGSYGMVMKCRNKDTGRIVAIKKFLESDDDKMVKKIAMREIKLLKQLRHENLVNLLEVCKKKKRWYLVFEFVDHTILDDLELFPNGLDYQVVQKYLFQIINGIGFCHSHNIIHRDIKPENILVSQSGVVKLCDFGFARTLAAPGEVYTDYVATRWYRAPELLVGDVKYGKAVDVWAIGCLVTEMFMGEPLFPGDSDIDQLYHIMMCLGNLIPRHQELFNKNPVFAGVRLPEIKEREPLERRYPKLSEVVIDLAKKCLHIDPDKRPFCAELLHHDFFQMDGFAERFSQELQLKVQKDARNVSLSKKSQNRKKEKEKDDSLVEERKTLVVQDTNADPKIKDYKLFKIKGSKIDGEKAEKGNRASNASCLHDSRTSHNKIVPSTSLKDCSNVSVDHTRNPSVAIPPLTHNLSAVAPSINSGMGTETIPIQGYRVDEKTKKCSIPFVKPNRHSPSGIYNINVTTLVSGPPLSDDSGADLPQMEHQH
Chain of UniProt P53667 (whole entry, looked up): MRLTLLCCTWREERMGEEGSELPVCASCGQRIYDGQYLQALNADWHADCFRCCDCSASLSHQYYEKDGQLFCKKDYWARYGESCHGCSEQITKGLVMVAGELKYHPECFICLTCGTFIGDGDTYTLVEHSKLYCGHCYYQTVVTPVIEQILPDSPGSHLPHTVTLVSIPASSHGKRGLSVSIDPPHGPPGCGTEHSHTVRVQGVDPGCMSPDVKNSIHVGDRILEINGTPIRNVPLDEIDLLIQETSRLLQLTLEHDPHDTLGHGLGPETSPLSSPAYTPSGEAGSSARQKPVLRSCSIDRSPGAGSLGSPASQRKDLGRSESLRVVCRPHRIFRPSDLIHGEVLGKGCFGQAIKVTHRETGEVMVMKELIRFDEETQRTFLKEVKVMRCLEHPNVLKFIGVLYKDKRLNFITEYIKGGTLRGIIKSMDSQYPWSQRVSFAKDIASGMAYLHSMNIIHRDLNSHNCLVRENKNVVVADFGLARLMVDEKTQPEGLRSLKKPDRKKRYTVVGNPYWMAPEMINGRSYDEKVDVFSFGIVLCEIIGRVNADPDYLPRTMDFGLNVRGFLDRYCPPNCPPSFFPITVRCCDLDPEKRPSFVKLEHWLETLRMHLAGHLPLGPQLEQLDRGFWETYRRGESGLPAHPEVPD
Chain of UniProt Q6ZWH5 (whole entry, looked up): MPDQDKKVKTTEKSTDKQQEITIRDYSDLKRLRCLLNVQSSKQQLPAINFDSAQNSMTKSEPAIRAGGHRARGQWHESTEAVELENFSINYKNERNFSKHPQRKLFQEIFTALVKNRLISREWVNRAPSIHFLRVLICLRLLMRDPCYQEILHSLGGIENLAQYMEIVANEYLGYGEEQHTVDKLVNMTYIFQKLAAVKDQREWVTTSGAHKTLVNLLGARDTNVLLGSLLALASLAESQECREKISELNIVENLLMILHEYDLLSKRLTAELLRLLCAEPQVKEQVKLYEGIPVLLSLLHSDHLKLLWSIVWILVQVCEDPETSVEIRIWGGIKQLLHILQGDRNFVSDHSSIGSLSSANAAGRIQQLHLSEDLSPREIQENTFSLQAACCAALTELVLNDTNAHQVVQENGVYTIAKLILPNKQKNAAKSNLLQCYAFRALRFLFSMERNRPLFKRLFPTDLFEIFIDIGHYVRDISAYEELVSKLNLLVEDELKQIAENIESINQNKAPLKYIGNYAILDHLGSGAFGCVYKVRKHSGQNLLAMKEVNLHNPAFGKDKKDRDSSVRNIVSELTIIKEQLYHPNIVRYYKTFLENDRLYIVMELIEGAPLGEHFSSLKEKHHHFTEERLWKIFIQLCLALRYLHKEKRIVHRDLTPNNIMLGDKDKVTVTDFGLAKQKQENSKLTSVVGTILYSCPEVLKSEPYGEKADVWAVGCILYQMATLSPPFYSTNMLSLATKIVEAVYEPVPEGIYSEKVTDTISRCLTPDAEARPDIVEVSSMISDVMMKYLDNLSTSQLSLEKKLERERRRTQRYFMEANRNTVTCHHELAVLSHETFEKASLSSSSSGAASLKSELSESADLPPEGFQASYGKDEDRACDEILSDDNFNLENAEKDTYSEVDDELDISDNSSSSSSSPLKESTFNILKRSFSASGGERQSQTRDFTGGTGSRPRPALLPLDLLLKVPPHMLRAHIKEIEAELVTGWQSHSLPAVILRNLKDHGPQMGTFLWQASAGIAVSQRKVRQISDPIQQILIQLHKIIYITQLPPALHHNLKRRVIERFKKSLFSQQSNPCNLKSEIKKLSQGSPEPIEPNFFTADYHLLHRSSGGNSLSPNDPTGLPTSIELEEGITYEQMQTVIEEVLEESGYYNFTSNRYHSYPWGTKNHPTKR

Set 1
Target: Cyclin-dependent kinase 5, with p25 (CDK5, Homo sapiens, UniProt Q00535)
Chain of UniProt Q00535 (whole entry, looked up): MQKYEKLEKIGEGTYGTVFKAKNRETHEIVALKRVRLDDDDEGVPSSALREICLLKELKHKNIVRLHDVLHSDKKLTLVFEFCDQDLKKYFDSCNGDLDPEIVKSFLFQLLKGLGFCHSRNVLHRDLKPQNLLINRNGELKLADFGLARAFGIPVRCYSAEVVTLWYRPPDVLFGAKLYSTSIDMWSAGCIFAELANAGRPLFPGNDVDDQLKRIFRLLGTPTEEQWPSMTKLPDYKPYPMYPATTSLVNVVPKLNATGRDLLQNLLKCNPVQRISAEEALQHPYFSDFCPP
Effect on: enzyme activity
Mode: inhibitor
Concentration: 0.5 µM
Relative to: control
Endpoint: remaining activity
Structure (SMILES) = N#CC(C#N)=C(N)/C(C#N)=C/c1ccc(O)cc1; result = 97.6%
Structure (SMILES) = COc1cc2nccc(Oc3ccc(NC(=S)NC(=O)c4ccccc4C)cc3)c2cc1OC; result = 93.2%
Structure (SMILES) = O=C(Nc1cccc(Nc2cc(Nc3cccc(C(F)(F)F)c3)ncn2)c1)C1CC1; result = 99.5%
Structure (SMILES) = CNC(=O)c1cc(Oc2ccc(NC(=O)Nc3ccc(Cl)c(C(F)(F)F)c3)cc2)ccn1; result = 97.2%
Structure (SMILES) = COc1cc2ncnc(Nc3ccc(Oc4ccccc4)cc3)c2cc1OC; result = 88.8%
Structure (SMILES) = Cc1ccc(NC(=O)c2ccc(CN3CCN(C)CC3)cc2)cc1Nc1nc(-c2cccnc2)cs1; result = 104%
Structure (SMILES) = O=C1NC(=O)C(c2cn(CCCO)c3ncccc23)=C1c1cnccn1; result = 103%
Structure (SMILES) = COc1cc2ncnc(Nc3ccc(F)c(Cl)c3)c2cc1OCCCN1CCOCC1; result = 95.4%
Structure (SMILES) = CN(C)c1ccc(C=C2C(=O)Nc3ccccc32)cc1; result = 102%
Structure (SMILES) = NCCNc1ncc(C(N)=O)c(Nc2cccc(C(F)(F)F)c2)n1; result = 92.4%
Structure (SMILES) = CCOC(=O)c1c(C)[nH]c(/C=C2\C(=O)Nc3ccccc32)c1C; result = 92.7%
Structure (SMILES) = Cn1c2ccccc2c2c3c(c4c5ccccc5n(CCC#N)c4c21)CNC3=O; result = 21.3%
Structure (SMILES) = Nc1ccc2ncnc(NCCc3ccc(Oc4ccccc4)cc3)c2c1; result = 90.6%
Structure (SMILES) = O=C1NC(=O)C(c2cn(CCCn3ccnc3)c3ccccc23)=C1Nc1ccccc1; result = 86%
Structure (SMILES) = COc1ccc(C(=O)Nc2sc3c(c2C(N)=O)CCCC3)cc1OC; result = 94.2%

Set 2
Target: CREBRF, bZIP domain (human)
Technique: DHFR protein complementation
Matrix: yeast
Notes: single substitutions, most at no-binding floor
Relative to: wild-type JUN-FOS pair
Direction: higher = stronger binding
Endpoint: binding fitness
Starting sequence: JUN, bZIP domain (human); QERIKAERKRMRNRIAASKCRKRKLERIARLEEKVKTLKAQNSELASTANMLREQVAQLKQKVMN; partner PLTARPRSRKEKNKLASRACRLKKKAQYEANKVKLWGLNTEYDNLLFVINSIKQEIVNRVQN
Variant = R53L; result = -1.48 natural log
Variant = V56M; result = -1.47 natural log
Variant = L52F; result = -1.65 natural log
Variant = R53C; result = -1.46 natural log
Variant = M51D; result = -1.55 natural log
Variant = A29S; result = -1.4 natural log
Variant = E54S; result = -1.32 natural log
Variant = L45S; result = -1.4 natural log

Set 3
SMILES: C[C@@H]1CN(c2cc(-c3n[nH]c4ccc(OC5(C)CC5)cc34)ncn2)C[C@H](C)O1
Effect on: cell-free assay
Technique: competition with immobilised ligand
Concentration: 0.1 µM
Endpoint: remaining binding
target = NEK10 (Homo sapiens, UniProt Q6ZWH5); result = 69%
target = NEK6 (Homo sapiens, UniProt Q9HC98); result = 100%
target = LIM domain kinase 1 (LIMK1, Homo sapiens, UniProt P53667); result = 86%
target = Cyclin-dependent kinase 4, with cyclin D3 (CDK4, Homo sapiens, UniProt P11802); result = 68%
target = CDKL2 (Homo sapiens, UniProt Q92772); result = 100%

Further values, each from its own experiment
Substance = SNRPC (Homo sapiens, UniProt P09234); tested on = SNRPD3 (Homo sapiens, UniProt P62318); test = cross-linking MS; conditions = hits only; endpoint = interaction screen; result = cross-linked
Substance = CC(C)n1cnc(-c2ccc(F)cc2)c1-c1ncc(C(=O)Nc2ccc(N3CCN(C)CC3)cc2)[nH]1; system = human, idiopathic pulmonary fibrosis; conditions = 60 mg once daily, trial, treatment-emergent; endpoint = patients with Nasopharyngitis; result = 0%
Substance = VPS13A (Homo sapiens, UniProt Q96RL7); tested on = CCT7 (Homo sapiens, UniProt Q99832); test = cross-linking MS; system = cell fractions; conditions = together with: DSSO; endpoint = cross-linked residues; result = T2636 to K320
Substance = NAT10 (Homo sapiens, UniProt Q9H0A0); tested on = AATF (Homo sapiens, UniProt Q9NY61); test = cross-linking MS; system = cell fractions; conditions = together with: DMTMM; endpoint = cross-linked residues; result = E883 to K58
Substance = UBR3 (Homo sapiens, UniProt Q6ZT12); tested on = SERBP1 (Homo sapiens, UniProt Q8NC51); test = cross-linking MS; system = cell fractions; conditions = together with: DSSO; endpoint = cross-linked residues; result = S1502 to K102

A few entries again (set 1):
Structure (SMILES) = CNC(=O)c1cc(Oc2ccc(NC(=O)Nc3ccc(Cl)c(C(F)(F)F)c3)cc2)ccn1; result = 97.2%
Structure (SMILES) = COc1cc2ncnc(Nc3ccc(Oc4ccccc4)cc3)c2cc1OC; result = 88.8%
Structure (SMILES) = Cc1ccc(NC(=O)c2ccc(CN3CCN(C)CC3)cc2)cc1Nc1nc(-c2cccnc2)cs1; result = 104%
Structure (SMILES) = O=C1NC(=O)C(c2cn(CCCO)c3ncccc23)=C1c1cnccn1; result = 103%
Structure (SMILES) = COc1cc2ncnc(Nc3ccc(F)c(Cl)c3)c2cc1OCCCN1CCOCC1; result = 95.4%
